Measured values from different studies.
Each line is one published result; not all experiments were run side by side. Values joined by “and” are separate records of one study, mostly repeats; a detail may differ. Numbers after ± are the reported error.

SMILES = CSCC[C@H](N)C(=O)N[C@@H](C)C(=O)N[C@@H](CCCNC(=N)N)C(=O)N[C@@H](CCCNC(=N)N)C(=O)N[C@@H](CC(=O)O)C(=O)N[C@@H](CCCCN)C(=O)N[C@H](C(=O)N[C@@H](CC(=O)O)C(=O)N[C@@H](Cc1ccccc1)C(=O)N[C@@H](C)C(=O)N[C@@H](CCCNC(=N)N)C(=O)N[C@@H](CCCNC(=N)N)C(=O)N[C@@H](CCCNC(=N)N)C(=O)N[C@@H](CCCNC(=N)N)C(=O)NCCCCCC(=O)NCCCCC(NC(=O)CCCCCNC(=O)[C@H](CCCNC(=N)N)NC(=O)[C@H](CCCNC(=N)N)NC(=O)[C@H](CCCNC(=N)N)NC(=O)[C@H](CCCNC(=N)N)NC(=O)[C@H](C)NC(=O)[C@H](Cc1ccccc1)NC(=O)[C@H](CC(=O)O)NC(=O)[C@@H](NC(=O)[C@H](CCCCN)NC(=O)[C@H](CC(=O)O)NC(=O)[C@H](CCCNC(=N)N)NC(=O)[C@H](CCCNC(=N)N)NC(=O)[C@H](C)NC(=O)[C@@H](N)CCSC)[C@@H](C)O)C(=O)NCCCCC(NC(=O)C(CCCCNC(=O)CCCCCNC(=O)[C@H](CCCNC(=N)N)NC(=O)[C@H](CCCNC(=N)N)NC(=O)[C@H](CCCNC(=N)N)NC(=O)[C@H](CCCNC(=N)N)NC(=O)[C@H](C)NC(=O)[C@H](Cc1ccccc1)NC(=O)[C@H](CC(=O)O)NC(=O)[C@@H](NC(=O)[C@H](CCCCN)NC(=O)[C@H](CC(=O)O)NC(=O)[C@H](CCCNC(=N)N)NC(=O)[C@H](CCCNC(=N)N)NC(=O)[C@H](C)NC(=O)[C@@H](N)CCSC)[C@@H](C)O)NC(=O)CCCCCNC(=O)[C@H](CCCNC(=N)N)NC(=O)[C@H](CCCNC(=N)N)NC(=O)[C@H](CCCNC(=N)N)NC(=O)[C@H](CCCNC(=N)N)NC(=O)[C@H](C)NC(=O)[C@H](Cc1ccccc1)NC(=O)[C@H](CC(=O)O)NC(=O)[C@@H](NC(=O)[C@H](CCCCN)NC(=O)[C@H](CC(=O)O)NC(=O)[C@H](CCCNC(=N)N)NC(=O)[C@H](CCCNC(=N)N)NC(=O)[C@H](C)NC(=O)[C@@H](N)CCSC)[C@@H](C)O)C(N)=O)[C@@H](C)O (stereo partly drawn); system = C57BL/6 mouse female, spleen; conditions = dose not given, 3 h; how to read = relative to: total; measurement = tissue distribution; result = 0.61% and 1.32% and 0.88%
SMILES = O=C(CN1C(=O)C2(CCN(C(=O)c3ccc4[nH]ncc4n3)CC2)c2c(Br)cccc21)NCC(F)(F)F; system = male C57BL/6 mouse, plasma; conditions = intravenous, 2 mg/kg; measurement = clearance; result = 24.3 mL/min/kg
SMILES = N=C(N)NCCC[C@H](NC(=O)[C@H](CCCNC(=N)N)NC(=O)[C@H](CCCNC(=N)N)NC(=O)[C@H](CCC(N)=O)NC(=O)[C@H](CCCNC(=N)N)NC(=O)[C@H](CCCNC(=N)N)NC(=O)[C@H](CCCCN)NC(=O)[C@H](CCCCN)NC(=O)[C@H](CCCNC(=N)N)NC(=O)CNC(=O)[C@H](Cc1ccc(O)cc1)NC(=O)[C@H](Cc1ccccc1)NC(=O)[C@H](Cc1ccccc1)NC(=O)[C@H](Cc1ccccc1)NC(=O)OCC1c2ccccc2-c2ccccc21)C(=O)O; system = C57BL/6 mice; conditions = intraperitoneal, 5 mg/kg, 0.5 h; how to read = direction not given; measurement = health score; result = 5
SMILES = CC[C@H](C)[C@H](NC(=O)[C@H](Cc1ccc(O)cc1)NC(=O)[C@@H](NC(=O)[C@H](CCCNC(=N)N)NC(=O)[C@@H](N)CC(=O)O)C(C)C)C(=O)N[C@@H](Cc1c[nH]cn1)C(=O)N1CCC[C@H]1C(=O)O; system = Beagle dog, plasma; conditions = sc, 10 mg/kg/day, day 27; how to read = relative to: day 0; measurement = AUC reduction; result = 15%
SMILES = CCCC[C@H]1C(=O)N(C)[C@@H](CCCC)C(=O)N[C@@H](CCCNC(=O)CN2CCN(CC(=O)O)CCN(CC(=O)O)CCN(CC(=O)O)CC2)C(=O)N[C@H](C(=O)NCC(N)=O)CSCC(=O)N[C@@H](Cc2ccc(O)cc2)C(=O)N(C)[C@@H](C)C(=O)N[C@@H](CC(N)=O)C(=O)N2CCC[C@H]2C(=O)N[C@@H](Cc2c[nH]cn2)C(=O)N[C@@H](CC(C)C)C(=O)N(C)CC(=O)N[C@@H](Cc2c[nH]c3ccccc23)C(=O)N[C@@H](CO)C(=O)N[C@@H](Cc2c[nH]c3ccccc23)C(=O)N1C [gallium-68 labelled]; system = NOD/SCID mice with CHO-hPD-L1 xenograft, skin; conditions = 60 min post injection; measurement = tissue uptake; result = 9.62 ± 2.41 %ID/g
SMILES = COc1ccc(CNc2ccc3c(c2)S(=O)(=O)C=C3)cc1; assay = flow cytometry; system = male C57BL/6 mice, spleen; conditions = i.p., 5 mg/kg, 8 days; how to read = relative to: CD45+ cells; measurement = Gr-1+ CD11b+ cells; result = 0.71%
SMILES = O=C1NC2(CC2)COc2ncc(F)cc2[C@H]2COCCN2c2ccn3ncc1c3n2; system = Sprague-Dawley rat, female, blood; conditions = oral, 10 mg/kg/day, 4 weeks, end of treatment, subacute toxicity; measurement = neutrophil percentage; result = 36.2 ± 12.5%
SMILES = CC(C)[C@@H]1NC(=O)CNC(=O)[C@H](CC(N)=O)NC(=O)[C@H](CCCNC(=N)N)NC(=O)[C@H](Cc2ccc(O)cc2)NC(=O)[C@H](C(C)C)NC(=O)[C@@H](NC(=O)[C@@H](NC(=O)[C@H](CC(N)=O)NC(=O)[C@H](Cc2c[nH]c3ccccc23)NC(=O)[C@H](C)NC(=O)[C@H](Cc2ccccc2)NC(=O)CNC(=O)[C@H](CCCCN)NC(=O)[C@H](Cc2ccccc2)NC(=O)[C@H](Cc2ccccc2)NC(=O)[C@H](CCCCN)NC(=O)OCC2c3ccccc3-c3ccccc32)C(C)C)CSSC[C@@H](C(=O)N[C@@H](Cc2c[nH]cn2)C(=O)N[C@@H](CCCNC(=N)N)C(=O)N[C@@H](CCCNC(=N)N)C(=O)N[C@@H](C)C(=O)N[C@@H](CC(N)=O)C(N)=O)NC(=O)[C@H](C(C)C)NC(=O)[C@H](CCCNC(=N)N)NC1=O; system = ICR mice, serum; conditions = intraperitoneal, 5 mg/kg, day 5; measurement = ALT; result = 46.8 ± 3.14 IU/L
SMILES = CC(C)C[C@@H](NC(=O)[C@@H](CCCNC(=N)N)NC(=O)[C@@H](Cc1c[nH]cn1)NC(=O)[C@@H](Cc1c[nH]c2ccccc12)NC(=O)[C@@H](Cc1c[nH]cn1)NC(=O)[C@@H](Cc1ccccc1)NC(=O)[C@H](NC(=O)[C@@H](Cc1ccc(O)cc1)NC(=O)CNC(=O)CNC(=O)CCOCCOCCOCCNC(=O)CN1CCN(CC(=O)O)CCN(CC(=O)O)CC1)[C@H](C)O)C(=O)N[C@H](CC(N)=O)C(=O)N1CCC[C@@H]1C(=O)O [gallium-68 labelled]; system = male C57BL/6 mice; conditions = intravenous, 1.85 MBq, 60 min, together with: GP12 blocking; how to read = relative to: tumour over heart; measurement = tumour-to-tissue ratio; result = 1.09 ± 0.41
SMILES = CC(C)=CCC/C(C)=C\CCn1cc(CC(P(=O)(O)O)P(=O)(O)O)nn1; system = CD-1 mouse, plasma; conditions = intravenous, 0.5 mg/kg, single dose; measurement = C0; result = 351 ng/mL
SMILES = CC[C@H](C)[C@H](NC(=O)CNC(=O)[C@H](CC(C)C)NC(=O)[C@H](Cc1ccccc1)NC(=O)CN)C(=O)N[C@@H](CC(C)C)C(=O)N[C@@H](Cc1ccccc1)C(=O)N[C@@H](Cc1c[nH]cn1)C(=O)NCC(=O)N[C@H](C(=O)N[C@@H](Cc1c[nH]cn1)C(=O)N[C@@H](Cc1c[nH]cn1)C(=O)NCC(=O)N[C@@H](CCCNC(=N)N)C(=O)N[C@@H](CCCCN)C(=O)N[C@@H](CCCCN)C(=O)N[C@@H](C)C(=O)N[C@@H](CC(C)C)C(=O)N[C@@H](Cc1c[nH]cn1)C(=O)N[C@@H](CCSC)C(=O)N[C@@H](CC(N)=O)C(=O)N[C@@H](CO)C(=O)N[C@@H](CCC(=O)O)C(=O)N[C@@H](CCCNC(=N)N)C(=O)N[C@@H](CCCNC(=N)N)C(=O)N[C@@H](CO)C(=O)O)C(C)C; system = zebrafish embryos 4 hpf, E3 medium; conditions = 24 h; measurement = chronic toxic concentration; result = 5 µM
SMILES = CC[C@H](C)[C@H](NC(=O)CNC(=O)[C@H](CCSC)NC(=O)[C@H](CCC(N)=O)NC(=O)[C@H](C)NC(=O)[C@H](CCC(N)=O)NC(=O)[C@@H](NC(=O)[C@H](CC(C)C)NC(=O)[C@H](C)NC(=O)[C@H](CO)NC(=O)[C@H](CCSC)NC(=O)[C@H](CCC(=O)O)NC(=O)[C@H](CC(C)C)NC(=O)[C@H](Cc1ccc(O)cc1)NC(=O)[C@H](CO)NC(=O)[C@H](CCC(=O)O)NC(=O)[C@H](CCC(N)=O)NC(=O)[C@H](CCCNC(=N)N)NC(=O)[C@H](CCCCN)NC(=O)[C@H](CC(=O)O)NC(=O)[C@H](CC(C)C)NC(=O)[C@H](CC(N)=O)NC(=O)[C@H](Cc1ccccc1)NC(=O)[C@H](CCC(=O)O)NC(=O)[C@H](CCCCN)NC(=O)[C@@H](NC(=O)[C@H](CC(C)C)NC(=O)[C@H](CCC(=O)O)NC(=O)[C@H](CCC(=O)O)NC(=O)[C@@H](NC(=O)[C@@H](NC(=O)[C@H](CCCNC(=N)N)NC(=O)[C@H](CCCCN)NC(=O)[C@H](C)NC(=O)[C@H](Cc1ccccc1)NC(=O)[C@H](CCC(=O)O)NC(=O)[C@H](CCC(=O)O)NC(=O)[C@H](CC(C)C)NC(=O)[C@@H](N)CO)C(C)C)C(C)C)C(C)C)[C@@H](C)CC)C(=O)N[C@@H](CO)C(=O)N[C@@H](CCC(=O)O)C(=O)N[C@@H](CCCNC(=N)N)C(=O)N[C@H](C(=O)N[C@H](C(=O)N[C@@H](CCC(=O)O)C(=O)N[C@H](C(=O)N[C@H](C(=O)N[C@@H](CC(C)C)C(=O)N[C@@H](CCCNC(=N)N)C(=O)N[C@@H](Cc1c[nH]cn1)C(=O)N[C@@H](C)C(=O)N[C@@H](C)C(=O)N[C@@H](CCC(N)=O)C(=O)N[C@H](C(=O)N[C@@H](CC(C)C)C(=O)N[C@@H](CCCCN)C(=O)O)[C@@H](C)O)C(C)C)[C@@H](C)CC)[C@@H](C)CC)[C@@H](C)CC; system = male mouse, plasma; conditions = intravenous, 1 mg/kg; measurement = AUC(0-t); result = 22800 ng·h/mL

For quick reference, copied from above:
SMILES = O=C(CN1C(=O)C2(CCN(C(=O)c3ccc4[nH]ncc4n3)CC2)c2c(Br)cccc21)NCC(F)(F)F; system = male C57BL/6 mouse, plasma; conditions = intravenous, 2 mg/kg; measurement = clearance; result = 24.3 mL/min/kg
